# Experimental data of several laboratories.
# Parts stem from different laboratories: compare values within a part only. Substitutions count along the parent as printed.

# Series 1
# Target: Ras GTPase-activating protein-binding protein 1, full length (G3BP1, Homo sapiens, UniProt Q13283)
# Chain of UniProt Q13283 (whole entry, looked up): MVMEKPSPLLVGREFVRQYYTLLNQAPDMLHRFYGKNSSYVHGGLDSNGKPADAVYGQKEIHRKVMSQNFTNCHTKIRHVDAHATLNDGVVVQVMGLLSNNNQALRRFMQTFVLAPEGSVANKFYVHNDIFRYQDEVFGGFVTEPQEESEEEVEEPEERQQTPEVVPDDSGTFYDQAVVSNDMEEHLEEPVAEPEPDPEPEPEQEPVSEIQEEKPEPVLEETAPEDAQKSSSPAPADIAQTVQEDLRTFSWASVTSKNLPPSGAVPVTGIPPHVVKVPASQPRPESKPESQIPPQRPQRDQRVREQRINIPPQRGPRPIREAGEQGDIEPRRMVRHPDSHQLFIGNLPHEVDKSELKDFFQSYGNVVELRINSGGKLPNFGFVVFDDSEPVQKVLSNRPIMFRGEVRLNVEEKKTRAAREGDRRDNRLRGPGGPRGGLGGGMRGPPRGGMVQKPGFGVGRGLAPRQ
# Technique: RNA Bind-n-Seq
# Form: RNA
# Sample: in vitro
# Tested at: 200 nM
# Notes: whole 134-nt RNA, ends assumed
# Added: 150 mM KCl
# Reference: input library
# Direction: higher = stronger binding
Sequence,log2 enrichment
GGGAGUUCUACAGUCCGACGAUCCACAGACAACACGCACCCACACAGACACAGAGGGAAGGGGUUGGGAUGGGGACAGGGAAAACAGCAGGGCGGGGUAGGACCCCAGCCCCUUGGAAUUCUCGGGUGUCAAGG,1.48
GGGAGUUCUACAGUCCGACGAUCGUCCUGUGCUACACAUCGUAUGUACCGAAUCGGUUUUUGGUUUUUUUGGAAAAAAAGGAAAGUAUUAUGUUACGCCGUUCGGAUCUGCACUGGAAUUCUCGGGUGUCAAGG,-1.15
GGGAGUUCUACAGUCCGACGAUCGUCCUGUGCUACACAUCGUAUGUACCGAAUCGGGGAAAAAGGAAAAAGGAAAAAGGGGAAAGUAUUAUGUUACGCCGUUCGGAUCUGCACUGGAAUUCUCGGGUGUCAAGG,-0.543
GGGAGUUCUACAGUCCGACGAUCGCAUGAAGUAAAAACAAAUGGAAAUGCUUCGGAUAGUGGCAGGGGUGGGGGUUGCUAAGGAAAGGGUGGGAUGGGAGUGGGUAAAGAGUUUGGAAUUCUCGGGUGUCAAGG,1
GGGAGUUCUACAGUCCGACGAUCUAACUUUACAGGAGGAUCUGAUGGAUAUGGCAGUGGACGUGGAUUUGGGGAUGGCUAUAAUGGGUAUGGAGGAGGACCUGGAGGUGGCAAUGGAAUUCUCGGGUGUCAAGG,0.523
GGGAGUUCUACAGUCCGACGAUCUGGUAUUCAUGGGUAGUUUGAAAUAUCCAGAUGAGAAUGGAUUUGAUGCCUUCCUGAAGAAGCAUGGGGGUAGUGAUAAUGCCUCAACUGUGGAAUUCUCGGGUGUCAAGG,-0.942
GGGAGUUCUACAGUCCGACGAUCGCAGGAAGUAAAAACAAAUGGAAAUGCUUCGGAUAGUGGCAGGGGUGGGGGUUGCUAAGGAAAGGGUGGGAUGGGAGAAAGUAAAGAGUUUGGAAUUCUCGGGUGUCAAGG,0.777
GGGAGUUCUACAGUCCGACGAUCGCAGGAAGUAAAAAAAAAUGGAAAUGCUUCGGAUAGUGGCAGGGGUGGGGGUUGCUAAGGAAAGGGUGGGAUGGGAGUGGGUAAAGAGUUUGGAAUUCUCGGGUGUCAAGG,0.474
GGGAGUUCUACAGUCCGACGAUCUGGCCCUGGUGGCAUGCGGGGAGGAAGAGGUGCCCUCAUGGAUCGUGGUGGUCCCGGUGGAAUGUUCAGAGGUGGCCGUGGUGGAGACAGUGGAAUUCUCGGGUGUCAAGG,0.414

# Series 2
# Target: Prothrombin, mature alpha-thrombin (F2, Homo sapiens, UniProt P00734)
# Technique: aptamer microarray, sandwich
# Form: DNA with 2'F-ANA
# Sample: in vitro
# Tested at: 200 nM
# Notes: whole 15-mer aptamer, many near background
# Added: Cy3 exosite-II aptamer, 400 nM
# Direction: higher = stronger binding
# Sequence: GGTTGGTGTGGTTGG
Modification,mean fluorescence intensity [a.u.]
2'F-ANA at 3 5 7 9 12 13,167
2'F-ANA at 2 4 5 7 9 10 13,44.4
2'F-ANA at 1 2 3 5 6 8 11 12 14 15,69.7
2'F-ANA at 2 8 12 14,221
2'F-ANA at 3 5 6 7 9 10 11 13 14,60.8
2'F-ANA at 1 2 3 6 7 10 11 12 13,133
2'F-ANA at 1 4 6 7 11 13 14 15,51
2'F-ANA at 5 6 8 9 10 12 14 15,50.8
2'F-ANA at 1 2 6 7 9 10 12 14,53.8
2'F-ANA at 2 3 5 6 7 8 12 15,246
2'F-ANA at 2 3 4 5 6 7 10 12 13 14,46.6
2'F-ANA at 2 3 4 5 7 8 9 13,63.1
2'F-ANA at 3 4 7 12 13,833
2'F-ANA at 1 3 6 8 9 15,303
2'F-ANA at 1 2 3 4 6 8 10 11 12 14,69.1
2'F-ANA at 1 2 5 6 8 9 11 12 14 15,50.4
2'F-ANA at 2 3 9 10 11 14 15,312
2'F-ANA at 2 5 7 9 10 12 14 15,203
2'F-ANA at 2 5 6 7 8 9 10 12 15,53.3
2'F-ANA at 5 7 10 11 14 15,44.3
2'F-ANA at 1 2 7 9 12 13 15,351
2'F-ANA at 2 3 6 13 14 15,353
2'F-ANA at 1 4 5 8 10,45.4

# Series 3
# Target: Phosphate system positive regulatory protein PHO4, full length, GST-tagged (PHO4, Saccharomyces cerevisiae, UniProt P07270, residues 1-312)
# Chain of UniProt P07270 (whole entry, looked up): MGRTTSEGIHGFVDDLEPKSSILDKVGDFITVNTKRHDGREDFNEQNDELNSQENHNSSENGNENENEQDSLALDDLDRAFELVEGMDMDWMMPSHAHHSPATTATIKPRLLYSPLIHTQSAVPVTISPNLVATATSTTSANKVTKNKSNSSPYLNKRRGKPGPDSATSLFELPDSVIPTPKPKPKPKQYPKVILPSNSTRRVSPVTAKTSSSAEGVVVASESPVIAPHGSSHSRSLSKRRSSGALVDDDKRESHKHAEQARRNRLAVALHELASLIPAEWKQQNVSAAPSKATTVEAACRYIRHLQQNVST
# Technique: competition protein-binding microarray
# Form: double-stranded DNA, one strand shown
# Sample: in vitro
# Tested at: 2 µM
# Notes: whole 60-bp probe, lowest competitor level
# Added: Cbf1 competitor, 0.05 µM
# Direction: higher = stronger binding
Sequence,fluorescence intensity [a.u.]
TGTCCAAGTCTGATCCATGTGTCTTGACCTATATGTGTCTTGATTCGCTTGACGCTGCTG,8460
CTTCTTCAGGGTTTGCACGTTGCCTTCATTCGGTTCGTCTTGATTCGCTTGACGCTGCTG,13600
CTTTCCCGATCTTTTCACGTGCTCTTAGCACATTTGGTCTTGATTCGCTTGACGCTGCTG,16100
CAATGGCTCAGTAACCTCGTGATGGAAAAAGGGCAAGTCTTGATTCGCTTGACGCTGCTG,8780
CCGGAAGTGAAAGAAGACGTGATGGGCTATGCGCTAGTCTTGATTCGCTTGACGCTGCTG,3930
AAAGCAAGAACCCTTCACATGTCAAACCTGAACGCAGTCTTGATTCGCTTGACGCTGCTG,6050
ATATGTATTTCATTTCACGTGATGGGCTGGGATGTTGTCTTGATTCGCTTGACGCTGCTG,14400
AAATTACTAAGTTTTCACGTGATGTACCCCGTATGAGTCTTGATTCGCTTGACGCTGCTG,13100
GCTGCATAAAACAACCATGTGGAGTTTTTACTGTATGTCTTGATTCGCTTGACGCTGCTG,9390
TGAAAATTAGACTGTCATGTGATGAGTAATATCGTCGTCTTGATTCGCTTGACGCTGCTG,6470
GCAGCCGCAGCGAGTCACGTGGTCGCGCAAATGATGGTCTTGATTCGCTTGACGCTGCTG,19200
CGGGGTTAAGTTTGTCGTGTGGGTGGCTTGCAGCAGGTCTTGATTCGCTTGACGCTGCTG,5730
CGCTCCTTAGTAAAGCACGTGCCGATGATATCAATTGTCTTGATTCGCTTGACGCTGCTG,20200
CCGCCCTTCAAAGTCCTCGTGCTGTGTATCAATTCCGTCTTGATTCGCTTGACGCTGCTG,12000
TGCGCAACAACTTGTTTGGTGGGTGTATGTCTAGAAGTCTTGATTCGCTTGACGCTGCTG,4080
TCAAATTAGACAATTGGCGTGGCCGGACGAGATCGCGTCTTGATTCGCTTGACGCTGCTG,3700
AGCAAGAAAACCCATCACGTGTGGATTCGGACCAAAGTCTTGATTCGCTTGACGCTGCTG,17100
GGTGAAGCCGGTATCGTCGTGCCGACCGCAGACTACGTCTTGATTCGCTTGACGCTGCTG,7850
AAATTACTAAGTTGTCACGGAACTTACCCCGTATGAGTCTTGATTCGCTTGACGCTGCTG,3430

# Series 4
# Target: CCNA1, cyclin fold, Cln2 fusion (human)
# Technique: yeast growth competition, sequencing
# Sample: yeast
# Notes: weak parent motif
# Reference: not given
# Direction: higher = stronger binding
# Starting sequence: PKMYT1 docking peptide (human); SFEPRNLLSLFED; partner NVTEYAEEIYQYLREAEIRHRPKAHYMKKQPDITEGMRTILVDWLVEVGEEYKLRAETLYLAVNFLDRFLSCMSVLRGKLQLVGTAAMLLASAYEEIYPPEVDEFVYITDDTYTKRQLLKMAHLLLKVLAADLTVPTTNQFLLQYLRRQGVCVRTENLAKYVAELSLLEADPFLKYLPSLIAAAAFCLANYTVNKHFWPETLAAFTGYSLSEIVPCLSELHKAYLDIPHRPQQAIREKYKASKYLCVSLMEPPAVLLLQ
Substitution,normalised enrichment score
S1K,-0.173
L10D,0.233
R5A L7A,-0.106
F2M,-0.206
L8H,0.322
F2L,0.257
F11M,0.062
P4N,0.128
L7N,0.158
E3I,0.0663
S9W,0.0426
D13R,-0.149
S1L,0.508
L7E,-0.0351
R5C,0.0128
P4W,0.182
P4Y,0.0394
E3K,0.187
F2T,0.399
S1I,0.188
S1M,0.614
N6M,-0.555
F11N,0.304
P4I,-0.0443
L8V,0.0887

# Some of these lines once more (series 2):
Modification,mean fluorescence intensity [a.u.]
2'F-ANA at 1 2 6 7 9 10 12 14,53.8
2'F-ANA at 1 2 7 9 12 13 15,351
2'F-ANA at 2 5 7 9 10 12 14 15,203
2'F-ANA at 5 6 8 9 10 12 14 15,50.8
2'F-ANA at 1 2 5 6 8 9 11 12 14 15,50.4
2'F-ANA at 2 3 6 13 14 15,353
2'F-ANA at 3 4 7 12 13,833
2'F-ANA at 2 4 5 7 9 10 13,44.4
2'F-ANA at 2 3 9 10 11 14 15,312
